Assay results gathered from unrelated publications.
A part holds a random share of what one study measured. Substitutions count along the parent as printed.

Set 1 — technique: protein-binding microarray; form: double-stranded DNA, one strand shown; medium: in vitro; tested at: 250 nM; setting: 60-bp whole probe; added: salmon DNA 0.4 mg/ml; reference: random background probes; reading: higher = stronger binding; quantity: log fluorescence; constant ends, left off below: GCCTAGCAC … GTCTTGATTCGCTTGACGCTGCTG
Target: Interferon regulatory factor 5, full length, phosphomimetic (IRF5, Homo sapiens, UniProt Q13568-2, residues 1-514, K96S/S451D/S453D/S456D/S462D)
GCCACTTTCCATTTCTGTTTGTGCTAG: 3.72 z-score
GACTGTATCGGTCTCGGGACGTGCTAG: 5.27 z-score
GACGGACTGGACTCTGGGGACGTGCTA: -0.522 z-score
AAGTGTATATACTATATGCATGTGCTA: 0.161 z-score
TTAGGTTACCTTTCCCTTTAGTGCTAG: 0.752 z-score
GACGAACTGAGTTTCGAGATGTGCTAG: 5.23 z-score
GACGATATCGGGGATCGAGACGTGCTA: 0.87 z-score
TTAGATATCAGTTTCGAATAGTGCTAG: 7.07 z-score
TTAGATTCCAGTTTCCATTAGTGCTAG: 1.69 z-score
TCATTTCTAATGTTTTTTACTGTGCTA: 1.57 z-score
AAGGCTTTGCTTCCTGCAGAGTGCTAG: -0.386 z-score
ATAGGTATCGACTATCGGTTAGTGCTA: 8.04 z-score
GTGGGGGGTGTGAGTGGGTGGTGCTAG: 2.48 z-score
GTAGGTTTCGGTTCCGGTTAGTGCTAG: 10.6 z-score
CATTTTAGTAGTTTCTAAAAGTGCTAG: 1.34 z-score
TTAGATTTCGGCTATCGATTAGTGCTA: 7.03 z-score

Set 2 — target: CCND1, cyclin fold, Cln2 fusion (human); technique: yeast growth competition, sequencing; medium: yeast; setting: weak parent motif; reference: not given; reading: higher = stronger binding; quantity: normalised enrichment score
Parent: CDKN1B docking peptide (human); PSACRNLFGPVDH; partner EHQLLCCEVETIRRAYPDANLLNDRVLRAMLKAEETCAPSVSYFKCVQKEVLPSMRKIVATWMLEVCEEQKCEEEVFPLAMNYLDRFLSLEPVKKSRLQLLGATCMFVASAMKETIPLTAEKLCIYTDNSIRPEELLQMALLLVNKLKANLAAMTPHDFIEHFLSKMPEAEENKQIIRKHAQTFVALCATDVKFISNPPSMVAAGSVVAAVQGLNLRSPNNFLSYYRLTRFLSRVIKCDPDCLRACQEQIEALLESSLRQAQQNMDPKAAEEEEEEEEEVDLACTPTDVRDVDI
PSACRNLFGPVDL [H13L]: 0.575
PSACRNHFGPVDH [L7H]: -0.281
PSACRNLFGPVAH [D12A]: 0.867
PSAGRNLFGPVDH [C4G]: -0.0439
PSECRNLFGPVDH [A3E]: 0.879
PSACYNLFGPVDH [R5Y]: 0.626
PSACRNLFGHVDH [P10H]: -0.00331
PEACRNLFGPVDH [S2E]: 0.539
PSACRNLFRPVDH [G9R]: -0.582
QSACRNLFGPVDH [P1Q]: 1.03
PSACVNLFGPVDH [R5V]: 0.817
PSACRNLFGPVTH [D12T]: 0.555
PSACRNLFFPVDH [G9F]: 0.4
PSACRNLFGPPDH [V11P]: 1.17
PSACRNLFGPVDY [H13Y]: 0.734
PSQCRNLFGPVDH [A3Q]: 0.476

Set 3 — technique: protein-binding microarray; form: double-stranded DNA, one strand shown; medium: in vitro; tested at: 0.8 µM; setting: whole 60-bp probe, no competitor; reading: higher = stronger binding; quantity: fluorescence intensity; constant ends, left off below: … GTCTTGATTCGCTTGACGCTGCTG
Target: Centromere-binding protein 1, full length, N-terminal tag (CBF1, Saccharomyces cerevisiae, UniProt P17106, residues 1-351)
Chain of UniProt P17106 (whole entry, looked up): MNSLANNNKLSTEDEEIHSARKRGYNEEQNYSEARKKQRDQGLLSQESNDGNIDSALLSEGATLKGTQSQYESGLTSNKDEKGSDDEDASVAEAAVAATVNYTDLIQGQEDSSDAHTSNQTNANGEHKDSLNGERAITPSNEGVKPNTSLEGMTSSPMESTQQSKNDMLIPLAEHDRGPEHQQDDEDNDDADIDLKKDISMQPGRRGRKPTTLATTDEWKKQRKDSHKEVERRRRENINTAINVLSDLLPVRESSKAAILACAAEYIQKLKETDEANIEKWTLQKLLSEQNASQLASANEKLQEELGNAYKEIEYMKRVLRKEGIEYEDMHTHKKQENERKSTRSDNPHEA
GAAGTTTATTCATGTCACGTGACTATATTTCCATAG: 54900 a.u.
CTAACCAAAATAGACATCAGCTTTATCATATGTTTC: 541 a.u.
CTAAAAAGACTTAACCATGTGGCAGCCGTTGTCTTC: 564 a.u.
GAATGATGAGTATTCAAGGTGACGGAATATTATTAG: 527 a.u.
GAATTGATTTTTTTTCACCTGTTCATTTTTTTTTAG: 580 a.u.
CTAGTAAGCGGTGGTCATCACAACCATCAGCGGTTC: 484 a.u.
GAAACGTTTCTTTTTCACGTGCTAAGTGATCTATAG: 6990 a.u.
CCTAACTACTATATTGTGATGATATAGCTTCGTACA: 552 a.u.
GAATATAAGACGGTCCTCCTGATGAGAGGAAGATAG: 524 a.u.
GAAGAGGTGAAATTTCAGCTGACAGCGAGTTTCTAG: 525 a.u.
CTATCTCAAAACAGTGCACGTGCACCCATGGCATTC: 13100 a.u.
GAAAGCTTTATGAGTTCCGTCACGTTTCTTGTTTAG: 2090 a.u.
CTAAAGTCTGGTATTAGCATCAGGTATACTTTATTC: 507 a.u.
TGTACGAAGCTATGTAACGTGAGTATAGTAGTTAGG: 701 a.u.
GAATGGGGACGTCATCACCCCCAAAGCACCTCATAG: 611 a.u.
GAAACAATATTTATACATGTGCGTTAAATACTTTAG: 925 a.u.
GAATGTAGCCTTGATCATCAGAGTTATATTTCTTAG: 512 a.u.
GAATGTTGCTTTAGTGATGATGTGAGCTTAGTGTAG: 544 a.u.
CTAACAACGCGTTTCTACGTGGTGGGCAGAAGTTTC: 543 a.u.
GAATTTCCATTGAATCTGATGACAGTTGAGTTTTAG: 499 a.u.
CTATCGCATTAGCACCTGAGTATATATCTGACATTC: 637 a.u.
CTAATTACCAAGAACCACGTTATTTGAGAGAGGTTC: 597 a.u.
CTACCCTTATCTGGTCACGTGAATTAAACTTCGTTC: 27800 a.u.

Set 4 — technique: RNA Bind-n-Seq; form: RNA; medium: in vitro; tested at: 15 pmol; setting: 4-mer, random 30-nt RNA, single round; added: 3 µM RocA, 2 mM AMP-PNP; reference: mean of 4-mers; reading: higher = stronger binding; quantity: 4-mer enrichment Z-score
Target: Eukaryotic initiation factor 4A-I (EIF4A1, Homo sapiens, UniProt P60842, residues 1-406, full length assumed)
Chain of UniProt P60842 (whole entry, looked up): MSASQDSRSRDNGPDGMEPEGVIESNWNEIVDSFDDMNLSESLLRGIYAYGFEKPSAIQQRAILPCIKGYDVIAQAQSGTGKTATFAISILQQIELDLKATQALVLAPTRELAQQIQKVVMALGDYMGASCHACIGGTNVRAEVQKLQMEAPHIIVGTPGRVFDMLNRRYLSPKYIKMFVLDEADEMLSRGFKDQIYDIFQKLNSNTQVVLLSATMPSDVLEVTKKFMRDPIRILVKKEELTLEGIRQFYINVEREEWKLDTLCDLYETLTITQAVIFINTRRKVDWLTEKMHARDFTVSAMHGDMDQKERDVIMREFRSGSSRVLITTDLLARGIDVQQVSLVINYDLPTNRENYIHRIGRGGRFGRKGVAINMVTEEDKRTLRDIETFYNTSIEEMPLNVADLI
GAUG: 1.24
AAGG: 1.62
AUCC: -1.18
GGGC: 0.74
UGUC: -0.709
GUCC: -1.03
UGAU: 0.568
UUGC: -0.488
ACUU: -0.806
CCCA: -1.18
CCGU: -0.712
CGGG: 1.01
CAAG: 0.139
UCAA: -0.962
CACA: -1.32

Set 5 — technique: RNA Bind-n-Seq; form: RNA; medium: in vitro; tested at: 365 nM; reference: no-protein control; reading: higher = stronger binding; quantity: RBNS enrichment (R)
Target: RNA binding protein fox-1 homolog 2, RRM domain, GST-SBP tag (RBFOX2, Homo sapiens, UniProt O43251-10, residues 100-194)
Setting: natural RNA segment, single round, ends assumed
Constant ends, left off below: GGGAGUUCUACAGUCCGACGAUC … UGGAAUUCUCGGGUGCCAA
Construct (chain): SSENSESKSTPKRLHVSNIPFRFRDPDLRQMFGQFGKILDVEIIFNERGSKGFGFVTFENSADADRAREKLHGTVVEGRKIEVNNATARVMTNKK
UUCAUUGUAGCACUAUUGGUAAUAAAAGAACAGAUGUUUGUGCAUUUUUAUGUGAAGAUCCUUCUCGUAUUUCAUUUGGAAGGAUGAGCGAGGUCUGCUUCUUUCUUUUU: 0.478
CAUGAGGUGAGGAGGCUGGCCCAGAAGGAAGGGGACGUUAGGUGGUGAAGCAGGCUCCCCUGGGCCUCUGAGGGCCAGCAGUCCCAACCAUUUGCCUCUUCGUUUUGACC: 0.61
CUGGGGCCAGGGGCUGAUUCACUUCCUUGGGAGAUGGUGGUGUUUUCAUGAACAUCUUUGAUCCUUCCAUUUCAUUUAUUCAUCCAUCCAUUCAACAAGUAUUUGCUAAA: 0.367
ACCAUCUUGGCCAGGCUGGUCUUGAAUUCCUGACCUCAGGUGAUCCACCCACCUUGGCCUCCCAAAGUGCUAGUAUUAUGGGCGUGAACCACCAUGCCCAGCCGAAAAGC: 2.21
AAGAGAUAUGUACUGCUGGGUACAUGGACAGUAAGUGUGUUUUCAGAUGGAGUACCAGCACCGAAAAUGGGUUGAGGGAGGAUGGGUUGUAUGUAUGUUUCUGCCCACUA: 6.18
CGAGGGGAUGGGGAUGCUUCCGCCUUUCCGGGGCUGCUGGCCUGGCCCUUGAGUGGGGCAGCCUCCUUGCCUGGAACUCACUCACUCUGGGUGCCUCCUCCCCAGGUGGA: 0.4
UUGCCCUCCAAGUUCUCUCUCUCAUACACACACACACCCUUGCUCCAGAAUCACCAGACACCUCCAUGGCUCCAGCUAUGGGAACAGCUGCAUUGGGGCUGCCUUUCUGU: 0.727
GUGUGUUUGUGGCUCCAAGUUACAUUUUGUGUUUCAUUGAUCUAUAUGUAUAUAUGUGAUGUUUUCAUAUAUAUAUGUGUGUGUGUUUAAAUUUUGUAUCAUCAGGACUG: 0.637
CCCGAAGAGACCCGGAACCAAGACCAUGGCAGGGCCUGCGUGGAAGCAGGUCCAGGCGUUUCUAGAACCCUAGGGUGCACCAUCACUGUCUUUUCAGUGCAGGCUGUAAC: 0.272
AAAGUAAUUUAAAUUAGUGGGAAAGUAGCAUGCUUGCAUCACAUAGAGUGAGAUUGGUAUUCAUUUACCUAUGUUGCGCCAGUUUGUGUUGCAGUUUACCAAUUCAAUAU: 0.382
CAUUCAGGGUCAGUAGGGAGGACAAAAUAGGGGGCUCUACGUGCAGUGAGGAAAGGCUGCUGUCAUGGUGUGGCCCUGCCUCACUGUCAAUAUCUGUUUUCUCUGGAGAG: 0.456
AAUUCACUUUAUACAUUAUUAAUAGUAGAUAAAUUUGUGUAAAAUGUAUCGCUGCUGUCCAGCAUGCUUUUCUUCUUUUUAUCCAAACAUGAGGCCAGGAGGAUAAUUAA: 6.03

Set 6 — technique: aptamer microarray, sandwich; form: DNA with 2'F-ANA; medium: in vitro; tested at: 200 nM; added: Cy3 exosite-II aptamer, 400 nM; reading: higher = stronger binding; quantity: mean fluorescence intensity; oligonucleotide: GGTTGGTGTGGTTGG
Target: Prothrombin, mature alpha-thrombin (F2, Homo sapiens, UniProt P00734)
Setting: whole 15-mer aptamer, many near background
2'F-ANA at 1 3 4 5 6 8 9 11 12 13 14: 45.7 a.u.
2'F-ANA at 1 4 8 9 10 11 12: 57.9 a.u.
2'F-ANA at 1 2 3 5 6 8 12 13 14 15: 48.8 a.u.
2'F-ANA at 1 4 6 7 8 9 11 12 13 14 15: 60.4 a.u.
2'F-ANA at 1 2 3 5 6 7 9 11 12: 99.9 a.u.
2'F-ANA at 2 3 4 5 7 9 10 11 12 15: 53.5 a.u.
2'F-ANA at 1 2 3 4 5 6 9 12: 118 a.u.
2'F-ANA at 4 5 7 8 9 11 15: 57.6 a.u.
2'F-ANA at 2 4 5 6 7 10 12 13 14 15: 51.1 a.u.
2'F-ANA at 2 4 5 6 7 8 9 11 13 14 15: 50.6 a.u.
2'F-ANA at 1 2 4 5 7 8 10 11 12 13 15: 49 a.u.
2'F-ANA at 2 4 5 6 9 10 12 13 14: 67 a.u.
2'F-ANA at 1 2 4 5 6 7 9 12 14: 44.6 a.u.
2'F-ANA at 1 2 3 5 8 9 10 11 12 13 14 15: 59.3 a.u.
2'F-ANA at 2 4 6 8 11 12 14: 113 a.u.
2'F-ANA at 1 3 4 10 11 12 13 14 15: 58.2 a.u.
